Results pooled from the literature.
± marks the error that the study gave.
UniProt Q12809, sequence (whole entry, looked up): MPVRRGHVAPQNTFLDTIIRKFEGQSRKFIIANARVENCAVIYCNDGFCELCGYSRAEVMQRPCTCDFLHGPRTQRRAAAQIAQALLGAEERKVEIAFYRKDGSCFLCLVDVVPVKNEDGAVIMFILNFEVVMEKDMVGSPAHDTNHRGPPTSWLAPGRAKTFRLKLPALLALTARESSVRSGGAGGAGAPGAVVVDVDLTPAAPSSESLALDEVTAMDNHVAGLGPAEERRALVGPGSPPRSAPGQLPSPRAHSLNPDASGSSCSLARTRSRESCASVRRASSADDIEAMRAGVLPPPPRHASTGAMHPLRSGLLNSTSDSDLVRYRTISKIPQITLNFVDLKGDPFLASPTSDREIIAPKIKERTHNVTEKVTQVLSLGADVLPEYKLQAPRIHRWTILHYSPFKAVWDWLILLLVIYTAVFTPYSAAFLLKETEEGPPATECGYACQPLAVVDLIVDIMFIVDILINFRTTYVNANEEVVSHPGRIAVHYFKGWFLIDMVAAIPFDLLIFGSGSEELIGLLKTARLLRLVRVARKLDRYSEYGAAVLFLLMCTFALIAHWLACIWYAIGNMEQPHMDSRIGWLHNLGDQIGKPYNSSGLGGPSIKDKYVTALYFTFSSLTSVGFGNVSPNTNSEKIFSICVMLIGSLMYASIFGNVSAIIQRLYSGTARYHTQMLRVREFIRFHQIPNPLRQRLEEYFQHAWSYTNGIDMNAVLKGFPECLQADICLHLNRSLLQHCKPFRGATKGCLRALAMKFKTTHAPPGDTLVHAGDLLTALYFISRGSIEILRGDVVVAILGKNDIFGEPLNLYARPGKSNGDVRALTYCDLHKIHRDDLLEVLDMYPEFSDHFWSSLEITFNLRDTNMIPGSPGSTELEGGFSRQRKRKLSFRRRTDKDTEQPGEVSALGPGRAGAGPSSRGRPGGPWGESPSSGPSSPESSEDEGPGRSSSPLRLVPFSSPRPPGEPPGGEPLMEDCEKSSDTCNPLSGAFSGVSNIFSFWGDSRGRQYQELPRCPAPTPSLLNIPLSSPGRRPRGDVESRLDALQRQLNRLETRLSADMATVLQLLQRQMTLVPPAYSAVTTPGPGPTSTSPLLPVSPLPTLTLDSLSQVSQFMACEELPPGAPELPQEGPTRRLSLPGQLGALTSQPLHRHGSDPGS

CN[C@](C)(C[18F])C(=O)O gave a tracer uptake of 2.3 %ID/g (DU-145 tumour model; host not given, heart; 2 h, tumour-bearing).
The revertant colonies of N#Cc1ccc(-c2ccc(-c3ccco3)o2)nc1 is reported as 29.7 ± 3.2 colonies/plate (Salmonella typhimurium; mutagenicity, Ames test; TA1535; 5 or 10 µM, 48 h, pH 7.4, lower tested concentration, with: rat liver S9 mix).
The tissue uptake of [64Cu+2].c1ccc(CNCc2ccc(CN3CCCNCCNCCCNCC3)cc2)nc1 is reported as 5.35 ± 1.15 %ID/g (CXCR4; NOD/SCID mouse, U87 xenografts, U87 tumour; 90 min).
O=C(O)CCC(NP(=O)(O)OCCC[C@@H](NC(=O)CCC(NC(=O)CCCCCNC(=O)c1ccc([18F])cc1)C(=O)O)C(=O)O)C(=O)O (stereo partly drawn) gave a tracer uptake of 0.49 %ID/g (CWR22Rv1 tumour model; host not given, liver; intravenous, 1 h, tumour-bearing).
For COc1ccc(CNc2nc(N3CCC[C@H]3CO)ncc2C(=O)NN)cc1Cl, the revertant count was 172 ± 8 (Salmonella typhimurium; TA97a; 1000 µg/plate, 48 h, with: rat liver S9).
With CN(C)CC1CCCCC1(O)c1cccc(O)c1 (stereo not drawn) the Papp A→B was 12.2 ×10⁻⁶ cm/s (Caco-2; 100 µM, 3 h, pH 7.4).
CC[C@H](C)C(=O)N1CCC(NC(=O)Nc2ccc(OC(F)(F)F)c(F)c2)CC1 has a half-life of 59.1 h (human, plasma; oral, 8 mg, single dose, healthy volunteers).
O=C(O)CCC(NP(=O)(O)OCCC[C@@H](NC(=O)CCC(NC(=O)c1ccc([18F])cc1)C(=O)O)C(=O)O)C(=O)O (stereo partly drawn) gave a tracer uptake of 5.46 %ID/g (PC-3 tumour model; host not given, kidney; intravenous, 2 h, tumour-bearing).
COc1cc(C(=O)NCCOCCOCCOCCNC(=O)c2ccc([18F])nc2)ccc1NC(=O)C1NC(CC(C)(C)C)C(C#N)(c2ccc(Cl)cc2F)C1c1cccc(Cl)c1F (stereo not drawn) gave a tracer uptake of 0.16 %ID/g (HepG2 tumour model; host not given, brain; 4 h, tumour-bearing).
For COc1cccc(C2(O)CCCCC2CN(C)C)c1.Cc1ccc(-c2cc(C(F)(F)F)nn2-c2ccc(S(N)(=O)=O)cc2)cc1.Cl (racemic), “subjects with euphoric mood” read 1 /1 (healthy human, fasted; oral, dose not given).
CC[C@H](C)[C@H](NC(=O)[C@H](CC(=O)O)NC(=O)[C@@H](NC(=O)[C@@H]1CCCN1C(=O)[C@H](CCCNC(=N)N)NC(=O)CCc1cn(CCOCCOCCOCCNC(=O)CCCCC[N+]2=C(/C=C/C=C/C=C3/N(C)c4ccccc4C3(C)C)C(C)(C)c3ccccc32)nn1)[C@@H](C)O)C(=O)N[C@@H](CCCCN)C(=O)N[C@H]1CSSC[C@@H]2NC(=O)[C@H](CCCNC(=N)N)NC(=O)CNC(=O)[C@H](CC(N)=O)NC(=O)[C@H]([C@@H](C)O)NC(=O)[C@H](CCCCN)NC(=O)CNC(=O)[C@H](Cc3ccccc3)NC(=O)[C@H](CCCNC(=N)N)NC(=O)[C@H](CO)NC(=O)[C@H](CCCCN)NC(=O)[C@@H]3CSSC[C@@H](C(=O)N[C@@H](Cc4ccccc4)C(=O)O)NC(=O)[C@H](CC(=O)O)NC(=O)[C@H](CSSC[C@H](NC(=O)[C@H](CCC(N)=O)NC(=O)[C@H](Cc4ccc(O)cc4)NC(=O)[C@H](CO)NC(=O)[C@H](CCC(=O)O)NC(=O)[C@H](CO)NC1=O)C(=O)N[C@@H](Cc1ccccc1)C(=O)N1CCC[C@H]1C(=O)N[C@@H](C(C)C)C(=O)N3)NC(=O)[C@H](Cc1ccccc1)NC(=O)CNC(=O)[C@H](CC(N)=O)NC(=O)[C@H](C(C)C)NC2=O has an IC50 of 0.0886 µM (Voltage-gated inwardly rectifying potassium channel KCNH2 (KCNH2, Homo sapiens, UniProt Q12809); ion current, inhibitor, two-electrode voltage clamp; pH 7.4, oocytes).
For CCN(CC)Cc1cc(Nc2c(C3CCCC3)c(C)nc3cc(Cl)ccc23)ccc1O, the CC50 was 16.9 ± 2.06 µM (BHK-21 DENV2 replicon cells; 24 h).
O=C(O)CC1C2CCCN3CCCC(CN1CCc1cc(Cl)cc(Cl)c1)C23 (stereo not drawn) gave a CC50 of 83.3 µM (HEK293T).
For O=C(O)CCC(NP(=O)(O)OCCC[C@@H](NC(=O)CCC(NC(=O)CCCCCNC(=O)CCCCCNC(=O)c1ccc([18F])cc1)C(=O)O)C(=O)O)C(=O)O (stereo partly drawn), the tracer uptake was 0.07 %ID/g (PC-3 tumour model; host not given, heart; intravenous, 2 h, tumour-bearing).
With CCCCCc1cc(O)c2c(c1)OC(C)(C)C1CCC(C)=CC21 (single isomer, unassigned; (-)) the unbound fraction was 0.048 ± 0.002 (human liver microsome incubation mixture).

Some of these lines once more:
For O=C(O)CCC(NP(=O)(O)OCCC[C@@H](NC(=O)CCC(NC(=O)CCCCCNC(=O)CCCCCNC(=O)c1ccc([18F])cc1)C(=O)O)C(=O)O)C(=O)O (stereo partly drawn), the tracer uptake was 0.07 %ID/g (PC-3 tumour model; host not given, heart; intravenous, 2 h, tumour-bearing).
CC[C@H](C)[C@H](NC(=O)[C@H](CC(=O)O)NC(=O)[C@@H](NC(=O)[C@@H]1CCCN1C(=O)[C@H](CCCNC(=N)N)NC(=O)CCc1cn(CCOCCOCCOCCNC(=O)CCCCC[N+]2=C(/C=C/C=C/C=C3/N(C)c4ccccc4C3(C)C)C(C)(C)c3ccccc32)nn1)[C@@H](C)O)C(=O)N[C@@H](CCCCN)C(=O)N[C@H]1CSSC[C@@H]2NC(=O)[C@H](CCCNC(=N)N)NC(=O)CNC(=O)[C@H](CC(N)=O)NC(=O)[C@H]([C@@H](C)O)NC(=O)[C@H](CCCCN)NC(=O)CNC(=O)[C@H](Cc3ccccc3)NC(=O)[C@H](CCCNC(=N)N)NC(=O)[C@H](CO)NC(=O)[C@H](CCCCN)NC(=O)[C@@H]3CSSC[C@@H](C(=O)N[C@@H](Cc4ccccc4)C(=O)O)NC(=O)[C@H](CC(=O)O)NC(=O)[C@H](CSSC[C@H](NC(=O)[C@H](CCC(N)=O)NC(=O)[C@H](Cc4ccc(O)cc4)NC(=O)[C@H](CO)NC(=O)[C@H](CCC(=O)O)NC(=O)[C@H](CO)NC1=O)C(=O)N[C@@H](Cc1ccccc1)C(=O)N1CCC[C@H]1C(=O)N[C@@H](C(C)C)C(=O)N3)NC(=O)[C@H](Cc1ccccc1)NC(=O)CNC(=O)[C@H](CC(N)=O)NC(=O)[C@H](C(C)C)NC2=O has an IC50 of 0.0886 µM (Voltage-gated inwardly rectifying potassium channel KCNH2 (KCNH2, Homo sapiens, UniProt Q12809); ion current, inhibitor, two-electrode voltage clamp; pH 7.4, oocytes).
